# Results from different studies.
# Compare with care: the assays were run in different laboratories. Numbers after ± are the reported error.
# WDR76: WDR76 (Homo sapiens, UniProt Q9H967)
# FGG: FGG (Homo sapiens, UniProt P02679)
# Hemoglobin subunit alpha: Hemoglobin subunit alpha (Homo sapiens, UniProt P69905)
# EPB42: EPB42 (Homo sapiens, UniProt P16452)
# HLA class I histocompatibility antigen, A alpha chain allele A*01:01: HLA class I histocompatibility antigen, A alpha chain, allele A*01:01 (Homo sapiens, UniProt P04439)
# Chain of UniProt P23246 (whole entry, looked up): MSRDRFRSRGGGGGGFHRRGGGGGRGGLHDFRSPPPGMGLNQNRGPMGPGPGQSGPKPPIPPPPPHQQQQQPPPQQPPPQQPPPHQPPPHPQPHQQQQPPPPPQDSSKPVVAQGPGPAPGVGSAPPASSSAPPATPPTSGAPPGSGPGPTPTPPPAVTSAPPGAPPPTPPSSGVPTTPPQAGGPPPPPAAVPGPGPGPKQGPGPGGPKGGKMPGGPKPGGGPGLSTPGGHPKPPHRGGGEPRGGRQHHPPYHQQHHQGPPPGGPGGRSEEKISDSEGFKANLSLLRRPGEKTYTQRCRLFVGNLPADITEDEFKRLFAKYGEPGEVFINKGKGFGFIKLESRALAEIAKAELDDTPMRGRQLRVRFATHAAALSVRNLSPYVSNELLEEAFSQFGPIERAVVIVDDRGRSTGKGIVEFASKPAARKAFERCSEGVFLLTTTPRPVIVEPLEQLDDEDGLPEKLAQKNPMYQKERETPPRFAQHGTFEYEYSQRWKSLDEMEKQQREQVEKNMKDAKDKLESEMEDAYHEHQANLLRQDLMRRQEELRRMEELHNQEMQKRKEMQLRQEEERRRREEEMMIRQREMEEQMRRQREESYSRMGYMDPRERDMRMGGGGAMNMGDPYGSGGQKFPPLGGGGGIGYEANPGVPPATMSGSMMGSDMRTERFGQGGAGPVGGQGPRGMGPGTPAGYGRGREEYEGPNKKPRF
# Chain of UniProt Q13206 (whole entry, looked up): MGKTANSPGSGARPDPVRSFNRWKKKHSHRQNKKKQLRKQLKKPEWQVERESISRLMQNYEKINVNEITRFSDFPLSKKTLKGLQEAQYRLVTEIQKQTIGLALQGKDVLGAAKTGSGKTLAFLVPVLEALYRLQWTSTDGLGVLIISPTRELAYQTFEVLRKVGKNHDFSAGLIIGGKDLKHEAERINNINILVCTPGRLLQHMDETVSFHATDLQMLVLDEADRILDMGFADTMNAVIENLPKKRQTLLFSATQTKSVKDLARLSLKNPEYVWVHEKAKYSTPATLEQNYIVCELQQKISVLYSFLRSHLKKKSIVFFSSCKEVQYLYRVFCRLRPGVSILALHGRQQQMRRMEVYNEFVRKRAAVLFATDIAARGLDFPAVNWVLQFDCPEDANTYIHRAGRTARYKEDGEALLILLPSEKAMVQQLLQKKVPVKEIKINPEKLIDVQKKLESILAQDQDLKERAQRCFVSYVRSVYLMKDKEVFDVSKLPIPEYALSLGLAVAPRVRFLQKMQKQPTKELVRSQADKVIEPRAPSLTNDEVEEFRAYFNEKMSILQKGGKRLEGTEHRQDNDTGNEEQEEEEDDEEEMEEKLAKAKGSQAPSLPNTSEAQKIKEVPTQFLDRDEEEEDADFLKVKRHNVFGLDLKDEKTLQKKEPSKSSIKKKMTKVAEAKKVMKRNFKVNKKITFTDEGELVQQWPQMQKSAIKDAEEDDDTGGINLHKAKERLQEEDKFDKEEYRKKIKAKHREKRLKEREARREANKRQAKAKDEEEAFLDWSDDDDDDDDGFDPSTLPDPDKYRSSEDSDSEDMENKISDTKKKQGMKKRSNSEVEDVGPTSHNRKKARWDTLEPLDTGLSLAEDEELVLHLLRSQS
# Chain of UniProt O43402 (whole entry, looked up): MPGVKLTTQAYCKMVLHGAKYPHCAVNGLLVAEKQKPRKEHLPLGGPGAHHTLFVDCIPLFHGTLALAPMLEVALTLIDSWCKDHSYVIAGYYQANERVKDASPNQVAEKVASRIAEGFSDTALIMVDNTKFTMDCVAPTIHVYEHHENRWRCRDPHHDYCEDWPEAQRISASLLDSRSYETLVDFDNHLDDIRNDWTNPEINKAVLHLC
# Chain of UniProt Q16851 (whole entry, looked up): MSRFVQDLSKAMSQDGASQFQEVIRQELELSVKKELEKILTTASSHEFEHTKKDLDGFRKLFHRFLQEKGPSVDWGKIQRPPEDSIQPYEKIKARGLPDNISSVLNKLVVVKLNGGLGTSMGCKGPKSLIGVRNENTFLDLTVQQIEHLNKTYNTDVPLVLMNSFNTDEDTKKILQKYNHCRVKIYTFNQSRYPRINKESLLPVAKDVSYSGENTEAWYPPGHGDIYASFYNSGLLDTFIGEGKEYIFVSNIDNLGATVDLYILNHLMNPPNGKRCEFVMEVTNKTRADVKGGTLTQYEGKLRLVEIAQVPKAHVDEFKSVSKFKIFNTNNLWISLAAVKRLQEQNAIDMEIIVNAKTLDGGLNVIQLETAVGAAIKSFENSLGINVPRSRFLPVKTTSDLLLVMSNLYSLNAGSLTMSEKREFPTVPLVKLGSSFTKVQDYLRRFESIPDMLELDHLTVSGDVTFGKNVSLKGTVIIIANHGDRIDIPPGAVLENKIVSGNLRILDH
# Chain of UniProt P08727 (whole entry, looked up): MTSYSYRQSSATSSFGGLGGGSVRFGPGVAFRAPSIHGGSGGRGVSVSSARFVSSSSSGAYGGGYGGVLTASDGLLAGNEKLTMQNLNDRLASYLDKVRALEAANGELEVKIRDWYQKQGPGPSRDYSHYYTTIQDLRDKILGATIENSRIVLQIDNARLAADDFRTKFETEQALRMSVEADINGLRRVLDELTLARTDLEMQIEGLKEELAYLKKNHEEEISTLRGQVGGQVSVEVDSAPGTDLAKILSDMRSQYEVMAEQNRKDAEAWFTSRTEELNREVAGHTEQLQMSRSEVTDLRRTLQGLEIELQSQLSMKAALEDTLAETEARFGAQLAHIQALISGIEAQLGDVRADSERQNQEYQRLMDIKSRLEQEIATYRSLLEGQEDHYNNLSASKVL
# Chain of UniProt Q9Y3A2 (whole entry, looked up): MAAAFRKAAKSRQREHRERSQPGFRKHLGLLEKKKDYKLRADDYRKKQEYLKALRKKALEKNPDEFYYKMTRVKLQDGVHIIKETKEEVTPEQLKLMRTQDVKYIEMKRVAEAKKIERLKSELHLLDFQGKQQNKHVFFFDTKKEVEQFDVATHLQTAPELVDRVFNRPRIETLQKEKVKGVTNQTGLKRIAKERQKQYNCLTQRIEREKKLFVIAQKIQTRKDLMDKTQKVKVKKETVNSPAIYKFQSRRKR
# Chain of UniProt Q9Y285 (whole entry, looked up): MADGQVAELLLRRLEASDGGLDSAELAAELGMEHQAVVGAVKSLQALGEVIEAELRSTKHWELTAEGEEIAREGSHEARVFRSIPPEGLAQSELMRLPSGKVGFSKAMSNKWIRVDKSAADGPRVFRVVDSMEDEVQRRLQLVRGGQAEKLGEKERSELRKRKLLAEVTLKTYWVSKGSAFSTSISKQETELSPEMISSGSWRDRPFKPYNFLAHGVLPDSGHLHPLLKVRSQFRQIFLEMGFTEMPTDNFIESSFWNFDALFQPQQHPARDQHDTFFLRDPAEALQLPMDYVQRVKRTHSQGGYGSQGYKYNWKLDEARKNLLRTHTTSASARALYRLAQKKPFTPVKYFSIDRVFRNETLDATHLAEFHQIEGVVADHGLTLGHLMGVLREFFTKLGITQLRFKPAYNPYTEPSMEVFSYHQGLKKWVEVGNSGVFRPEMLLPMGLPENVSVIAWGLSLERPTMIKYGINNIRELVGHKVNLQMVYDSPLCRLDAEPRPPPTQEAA
# Chain of UniProt P61026 (whole entry, looked up): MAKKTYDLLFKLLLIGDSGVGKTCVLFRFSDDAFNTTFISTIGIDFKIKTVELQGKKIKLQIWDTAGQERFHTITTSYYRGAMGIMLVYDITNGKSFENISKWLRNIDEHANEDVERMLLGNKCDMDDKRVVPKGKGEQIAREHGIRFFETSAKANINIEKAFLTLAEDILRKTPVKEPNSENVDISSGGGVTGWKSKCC
# Chain of UniProt P05783 (whole entry, looked up): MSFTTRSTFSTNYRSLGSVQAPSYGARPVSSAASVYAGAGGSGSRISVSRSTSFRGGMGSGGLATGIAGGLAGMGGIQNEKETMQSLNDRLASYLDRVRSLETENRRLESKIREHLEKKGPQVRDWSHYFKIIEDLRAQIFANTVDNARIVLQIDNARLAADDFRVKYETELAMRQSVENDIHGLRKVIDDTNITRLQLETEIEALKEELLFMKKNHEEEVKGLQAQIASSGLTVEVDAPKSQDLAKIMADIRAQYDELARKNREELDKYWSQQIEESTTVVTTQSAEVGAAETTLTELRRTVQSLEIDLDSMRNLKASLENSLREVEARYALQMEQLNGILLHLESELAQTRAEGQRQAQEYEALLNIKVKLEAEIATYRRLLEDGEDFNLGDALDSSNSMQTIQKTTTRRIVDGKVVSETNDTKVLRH
# Chain of UniProt Q96TA1 (whole entry, looked up): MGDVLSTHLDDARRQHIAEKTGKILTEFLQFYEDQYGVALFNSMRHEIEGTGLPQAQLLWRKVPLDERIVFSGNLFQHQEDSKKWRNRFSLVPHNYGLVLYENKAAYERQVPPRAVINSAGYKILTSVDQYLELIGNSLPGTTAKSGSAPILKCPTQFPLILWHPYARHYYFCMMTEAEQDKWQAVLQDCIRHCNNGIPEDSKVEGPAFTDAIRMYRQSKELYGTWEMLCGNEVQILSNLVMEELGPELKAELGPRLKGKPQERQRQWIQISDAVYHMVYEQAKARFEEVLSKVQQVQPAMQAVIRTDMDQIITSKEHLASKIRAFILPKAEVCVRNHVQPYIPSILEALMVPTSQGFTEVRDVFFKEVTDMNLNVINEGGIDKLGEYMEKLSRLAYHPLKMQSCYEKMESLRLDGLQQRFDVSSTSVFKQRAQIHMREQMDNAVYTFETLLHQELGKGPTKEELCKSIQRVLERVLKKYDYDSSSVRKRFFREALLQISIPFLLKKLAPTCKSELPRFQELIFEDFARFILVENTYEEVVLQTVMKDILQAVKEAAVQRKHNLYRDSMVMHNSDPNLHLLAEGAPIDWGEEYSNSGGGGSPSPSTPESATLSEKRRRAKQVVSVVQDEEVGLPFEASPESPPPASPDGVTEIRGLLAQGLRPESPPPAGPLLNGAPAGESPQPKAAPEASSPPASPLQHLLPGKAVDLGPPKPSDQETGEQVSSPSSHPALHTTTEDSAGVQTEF
Substance,target or system,test,system,setting,how to read,quantity,value
"ENO1 (Homo sapiens, UniProt P06733)","MDH1 (Homo sapiens, UniProt P40925)",cross-linking MS,cells,together with: BDP-NHP,,cross-linked residues,K80 to K110
"UGP2 (Homo sapiens, UniProt Q16851)","PNN (Homo sapiens, UniProt Q9H307)",cross-linking MS,cells,together with: iqPIR,,cross-linked residues,K124 to K20
Rilpivirine docusate,,,buffer,pH 4.5,,equilibrium solubility,0.1 ± 0.03 µg/mL
"KRT8 (Homo sapiens, UniProt P05787)","KRT74 (Homo sapiens, UniProt Q7RTS7)",cross-linking MS,cells,together with: BDP-NHP,,cross-linked residues,K264 to K150
"KRT18 (Homo sapiens, UniProt P05783)","AKAP9 (Homo sapiens, UniProt Q99996)",cross-linking MS,cells,together with: iqPIR,,cross-linked residues,K118 to K949
VMRLQSETSV,human MAGI1-2/6 PDZ construct (MBP fusion),automated holdup,"peptide, crude extract","concentration not given, uncorrected, unit not given","reference: biotin control resin, higher = stronger binding",binding intensity,0.488
"FGG (Homo sapiens, UniProt P02679)","UACA (Homo sapiens, UniProt Q9BZF9)",cross-linking MS,,together with: DSSO,,cross-linked residues,K121 to K784
"EMC8 (Homo sapiens, UniProt O43402)","EMC2 (Homo sapiens, UniProt Q15006)",cross-linking MS,purified complex,together with: DSSO,,cross-linked residues,K100 to K136
"CRACDL (Homo sapiens, UniProt Q6NV74)",WDR76,cross-linking MS,,together with: DSSO,,cross-linked residues,K962 to K10
"KRT19 (Homo sapiens, UniProt P08727)","UTP11 (Homo sapiens, UniProt Q9Y3A2)",cross-linking MS,cells,together with: iqPIR,,cross-linked residues,K265 to K7
"PGM2 (Homo sapiens, UniProt Q96G03)","KRT84 (Homo sapiens, UniProt Q9NSB2)",cross-linking MS,,together with: DSSO or DMTMM,,cross-linked residues,A2 to E362
AAGAAAGAAAGA (dsDNA),"Fibroin-modulator-binding protein-1 99-193 (Bombyx mori, UniProt Q5FBS0)",ITC,"double-stranded DNA, one strand shown",,,Kd,3.61 ± 0.794 µM
"PDCD4 (Homo sapiens, UniProt Q53EL6)",WDR76,cross-linking MS,,together with: DSSO,,cross-linked residues,K115 to K442
"HBE1 (Homo sapiens, UniProt P02100)","SLC4A1 (Homo sapiens, UniProt P02730)",cross-linking MS,,together with: DSSO or DMTMM,,cross-linked residues,M1 to E13
"REN (Homo sapiens, UniProt P00797)",FGG,cross-linking MS,,together with: DSSO,,cross-linked residues,K315 to K121
"CCT6A (Homo sapiens, UniProt P40227)","CCT3 (Homo sapiens, UniProt P49368)",cross-linking MS,,together with: DSSO,,cross-linked residues,K530 to K78
"HSPA9 (Homo sapiens, UniProt P38646)",Hemoglobin subunit alpha,cross-linking MS,,together with: DSSO or DMTMM,,cross-linked residues,D496 to K12
"APOA1 (Homo sapiens, UniProt P02647)","APOC1 (Homo sapiens, UniProt P02654)",cross-linking MS,,together with: DSSO,,cross-linked residues,K232 to K56
"CSDE1 (Homo sapiens, UniProt O75534)","STRAP (Homo sapiens, UniProt Q9Y3F4)",cross-linking MS,cells,together with: BDP-NHP,,cross-linked residues,K758 to K262
"GAPDH (Homo sapiens, UniProt P04406)","RFC1 (Homo sapiens, UniProt P35251)",cross-linking MS,cells,together with: iqPIR,,cross-linked residues,K61 to K514
"PNP (Homo sapiens, UniProt P00491)",Hemoglobin subunit alpha,cross-linking MS,,together with: DSSO or DMTMM,,cross-linked residues,K179 to D76
"FGA (Homo sapiens, UniProt P02671)","NLRP3 (Homo sapiens, UniProt Q96P20)",cross-linking MS,,together with: DSSO,,cross-linked residues,K476 to K131
"PLEC (Homo sapiens, UniProt Q15149)","SKIC2 (Homo sapiens, UniProt Q15477)",cross-linking MS,cells,together with: BDP-NHP,,cross-linked residues,K2189 to K791
"POLR3G (Homo sapiens, UniProt O15318)",FGG,cross-linking MS,,together with: DSSO,,cross-linked residues,K125 to K231
"ANK1 (Homo sapiens, UniProt P16157)",EPB42,cross-linking MS,,together with: DSSO or DMTMM,,cross-linked residues,K59 to D86
NPDALPETLV,human MAGI1-2/6 PDZ construct (MBP fusion),automated holdup,"peptide, crude extract","concentration not given, corrected by standard peak, unit not given","reference: biotin control resin, higher = stronger binding",binding intensity,-0.0567
"GAPDH (Homo sapiens, UniProt P04406)","MYBBP1A (Homo sapiens, UniProt Q9BQG0)",cross-linking MS,cells,together with: BDP-NHP,,cross-linked residues,K259 to K277
"SFPQ (Homo sapiens, UniProt P23246)","RAB10 (Homo sapiens, UniProt P61026)",cross-linking MS,cells,together with: iqPIR,,cross-linked residues,K332 to K102
QLMPFGSLLDY,"HLA class I histocompatibility antigen, A alpha chain allele A*01:01","complex stability, off-rate",peptide,37 °C,,half-life of peptide-HLA complex,36 min
"SLC4A1 (Homo sapiens, UniProt P02730)","CLIP2 (Homo sapiens, UniProt Q9UDT6)",cross-linking MS,,together with: DSSO or DMTMM,,cross-linked residues,D369 to K680
"FLOT1 (Homo sapiens, UniProt O75955)","FLOT2 (Homo sapiens, UniProt Q14254)",cross-linking MS,cells,together with: BDP-NHP,,cross-linked residues,K51 to K100
"KRT8 (Homo sapiens, UniProt P05787)","DDX10 (Homo sapiens, UniProt Q13206)",cross-linking MS,cells,together with: iqPIR,,cross-linked residues,K117 to K522
"TOMM70 (Homo sapiens, UniProt O94826)","NCL (Homo sapiens, UniProt P19338)",cross-linking MS,cells,together with: BDP-NHP,,cross-linked residues,K126 to K398
"FGB (Homo sapiens, UniProt P02675)","DNAJB4 (Homo sapiens, UniProt Q9UDY4)",cross-linking MS,,together with: DSSO,,cross-linked residues,K51 to K26
"FARSB (Homo sapiens, UniProt Q9NSD9)","FARSA (Homo sapiens, UniProt Q9Y285)",cross-linking MS,cells,together with: iqPIR,,cross-linked residues,K467 to K481
"ALB (Homo sapiens, UniProt P02768)","SPRED2 (Homo sapiens, UniProt Q7Z698)",cross-linking MS,,together with: DSSO,,cross-linked residues,K499 to K83
"IQGAP1 (Homo sapiens, UniProt P46940)","NIBAN2 (Homo sapiens, UniProt Q96TA1)",cross-linking MS,cells,together with: iqPIR,,cross-linked residues,K1230 to K554
"GYPA (Homo sapiens, UniProt P02724)",EPB42,cross-linking MS,,together with: DSSO or DMTMM,,cross-linked residues,D132 to K200
ITQLMPFGS,"HLA class I histocompatibility antigen, A alpha chain allele A*01:01",conformational ELISA,peptide,concentration not given,"reference: positive control peptide, direction not given",binding score,0.3%

# Repeated from above:
Substance,target or system,test,system,setting,how to read,quantity,value
"HBE1 (Homo sapiens, UniProt P02100)","SLC4A1 (Homo sapiens, UniProt P02730)",cross-linking MS,,together with: DSSO or DMTMM,,cross-linked residues,M1 to E13
"CCT6A (Homo sapiens, UniProt P40227)","CCT3 (Homo sapiens, UniProt P49368)",cross-linking MS,,together with: DSSO,,cross-linked residues,K530 to K78
Rilpivirine docusate,,,buffer,pH 4.5,,equilibrium solubility,0.1 ± 0.03 µg/mL
